{"data": "Experimental data from different studies", "note": "Every numbered part comes from another study and shows a few of its results, in no order. Substitutions count along the parent as printed."}
{"data": "Series 1", "target": "ABI1, truncated, D143A, DHFR fusion (Arabidopsis thaliana)", "method": "DHFR PCA, deep sequencing", "sample": "yeast", "notes": "methotrexate growth selection, single substitutions", "added": "(+)-ABA 0.032 µM", "relative to": "wild-type fitted maximum", "direction": "higher = stronger binding", "starting sequence": "PYL1, truncated, DHFR fusion (Arabidopsis thaliana); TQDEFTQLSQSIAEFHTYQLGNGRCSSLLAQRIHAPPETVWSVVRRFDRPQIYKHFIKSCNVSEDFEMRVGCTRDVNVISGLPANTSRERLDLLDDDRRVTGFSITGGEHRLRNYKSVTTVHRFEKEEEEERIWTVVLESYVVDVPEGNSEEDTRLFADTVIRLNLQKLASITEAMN"}
{"Substitution": "D144F", "relative binding score [%]": -19.3}
{"Substitution": "R99N", "relative binding score [%]": 4.99}
{"Substitution": "R32P", "relative binding score [%]": 6.05}
{"Substitution": "E130Y", "relative binding score [%]": 17.3}
{"data": "Series 2", "target": "Histone acetyltransferase KAT6A, winged helix 2, GST fusion (KAT6A, Homo sapiens, UniProt Q92794, residues 85-181)", "method": "protein binding microarray", "form": "double-stranded DNA, one strand shown", "sample": "in vitro", "concentration": "not given", "notes": "8-mer, flanks averaged, mean of 2 arrays, mostly near background", "relative to": "not given", "direction": "higher = stronger binding", "Target sequence (chain)": "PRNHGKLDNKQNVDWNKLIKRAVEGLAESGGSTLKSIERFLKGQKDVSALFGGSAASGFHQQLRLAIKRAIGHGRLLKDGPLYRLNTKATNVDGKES"}
{"Strand": "AAAGTTTC", "E-score": 0.0584}
{"Strand": "ACATGCGA", "E-score": -0.031}
{"Strand": "GAGATCGC", "E-score": -0.0236}
{"Strand": "ACCTCTCT", "E-score": -0.0739}
{"Strand": "AAGTCGAC", "E-score": 0.0371}
{"Strand": "GTCCTCCA", "E-score": -0.0589}
{"Strand": "CGATGTTA", "E-score": -0.013}
{"data": "Series 3", "target": "CCNB3, cyclin fold, Cln2 fusion (human)", "method": "yeast growth competition, sequencing", "sample": "yeast", "notes": "weak parent motif", "relative to": "not given", "direction": "higher = stronger binding", "starting sequence": "RB1 docking peptide (human); PKPLKKLRFDIEG"}
{"Substitution": "PKPLKKLRFDCEG [I11C]", "normalised enrichment score": 0.118}
{"Substitution": "PKPLCKLRFDIEG [K5C]", "normalised enrichment score": 0.0174}
{"Substitution": "PKPLSKLRFDIEG [K5S]", "normalised enrichment score": 0.328}
{"Substitution": "PEPLKKLRFDIEG [K2E]", "normalised enrichment score": 0.651}
{"Substitution": "PKPLKKLVFDIEG [R8V]", "normalised enrichment score": 0.564}
{"data": "Mixed results"}
{"Molecule": "PhoQ, residues 284 288 289 292 302 303 WSHMKI", "target": "PhoP, residues 12 14 15 18 19 NQGLL (Escherichia coli, UniProt P23836)", "assay": "Sort-seq, refers to: YFP reporter", "test system": "E. coli", "setting": "PhoQ-PhoP variant library, added: 10 µM Mg2+", "scale": "relative to: high Mg2+ state, higher = stronger signaling", "quantity": "fold induction", "result": 0.932}
{"note": "Repeated from above (series 2):"}
{"Strand": "AAAGTTTC", "E-score": 0.0584}
